Experimental data pooled from the literature.
Numbered parts are unrelated; each lists some results of a single study. Substitutions count along the parent as printed.

Set 1
Target: PABPC1L2, full length, GST fusion (mouse, UniProt A0ABA7IW68)
Technique: RNAcompete
Form: RNA
Sample: in vitro
Concentration: 20 nM
Notes: 7-mer, probes averaged, single round
Relative to: mean of 7-mers
Reading: higher = stronger binding
Endpoint: 7-mer Z-score
Target sequence (chain): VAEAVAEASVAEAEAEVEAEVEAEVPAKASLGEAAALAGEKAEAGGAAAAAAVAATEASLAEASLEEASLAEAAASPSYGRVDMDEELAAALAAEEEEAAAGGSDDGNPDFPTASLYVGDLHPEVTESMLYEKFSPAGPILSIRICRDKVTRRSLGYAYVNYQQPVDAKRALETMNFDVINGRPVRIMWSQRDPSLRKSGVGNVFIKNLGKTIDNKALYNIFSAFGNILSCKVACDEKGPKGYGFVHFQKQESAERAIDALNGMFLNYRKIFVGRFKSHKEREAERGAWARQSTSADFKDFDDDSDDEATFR
UGAAUGC: -0.295
UAGCGGC: -0.0409
GGCGGGA: 0.461
CGUCUGG: -0.202
CUUCAAA: 0.224
AAUUCUC: -0.204
UGUGCAG: -0.171
GCGUCCC: -0.244
AGCCAAU: -0.0573
GGAUAUG: 0.0823
CAACCUG: -0.104
CUCGCCG: -0.405
CCCUCGU: -0.467
UCUGUUA: -0.393
CAGAGCU: -0.191
AUUUCAC: -0.148
GGCGGUU: 0.0388
UGGGGGG: 0.146
CGAAGGG: 0.111
UAUGUAU: -0.291
GUUAACU: -0.315
AAGGGAG: 0.441
CCGUGCU: -0.244
CGAGCGC: -0.282
UGCCACA: 0.0243

Set 2
Target: ABI1, truncated, D143A, DHFR fusion (Arabidopsis thaliana)
Technique: DHFR PCA, deep sequencing
Sample: yeast
Notes: methotrexate growth selection, single substitutions
With: (+)-ABA 4.8 µM
Relative to: wild-type fitted maximum
Reading: higher = stronger binding
Endpoint: relative binding score
Starting sequence: PYL1, truncated, DHFR fusion (Arabidopsis thaliana); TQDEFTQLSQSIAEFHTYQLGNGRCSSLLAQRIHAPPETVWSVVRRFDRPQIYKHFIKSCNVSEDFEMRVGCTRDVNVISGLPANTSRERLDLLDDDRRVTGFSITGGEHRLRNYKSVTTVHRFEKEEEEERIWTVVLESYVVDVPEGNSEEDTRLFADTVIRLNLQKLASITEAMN
T6M: 73.5%
N77L: 65.4%
C60G: 1.99%
E127G: 82.5%
R24L: 45.5%
E4A: 63.9%
R90E: 25%
N149T: 30.4%
R49S: 63.8%
E67C: 64.3%
L156V: 75.2%
D144A: -5.36%
R74T: -6.29%
N22K: 78.3%
L93G: -2.09%
N22A: 78.3%
N61D: 74.4%
D65M: 45.2%

Set 3
Target: RNA binding protein fox-1 homolog 2, RRM domain, GST-SBP tag (RBFOX2, Homo sapiens, UniProt O43251-10, residues 100-194)
Technique: RNA Bind-n-Seq
Form: RNA
Sample: in vitro
Concentration: 365 nM
Notes: natural RNA segment, single round, ends assumed
Relative to: no-protein control
Reading: higher = stronger binding
Endpoint: RBNS enrichment (R)
Constant ends, left off below: GGGAGUUCUACAGUCCGACGAUC … UGGAAUUCUCGGGUGCCAA
Residues (chain): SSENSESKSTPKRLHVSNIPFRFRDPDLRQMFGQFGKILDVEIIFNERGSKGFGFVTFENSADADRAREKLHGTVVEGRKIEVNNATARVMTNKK
GUUCUUCACCCUCACAGUGAUACCUCCUUUCCUUGGGUCUCUUGGCCUCCAGACCCCCUCAAUAGACACUGACUAAAGUCAGGCUGGAGUCAUGAGGGUAGUGGGCUAAG: 0.291
CUCCAAGGUGACCUCACAUUUGACUAUCAAAUGAAGUGUUGUGAUUGGGAAGCGUAGAGGCAGGGCCAUGUGCUCAGAACGGUGACAAUAAAGGACUGCCUUUUACUUGU: 0.358
AAGGGCAGUCAAGUCCAGUCACCCAUAUUACUCAUCAAUGUUAGACGAAGCCUUGAGCUGAAGGAGGUGCUGUCGGCUAGGCCUCUACUCUGGGUUUCAGAGAGUAGUAU: 1.09
AAAUAACUCUUUACAAAUAAGGGUCGGGCACGGUGGCUCACGCCUGUAAUCCCAGCUCUUUGGGAGGCCGAGGUGGGCAGAUCACGAGGUCAGGAGAUCGAGACCAUCCU: 0.347
CUCUGUGUUAAUACUGCUUCACAAUUCUGAAUGGCUGUGUUCUCUUAAAUAAAUGCAUUCAAAGAAACGUGUGGUGGUAGCAUUACAAAUGUAGGUGGCUUUCUUCCUUC: 0.445
CUGGUGUCCCCCCAGGCUACCUGCUCAGGAACCCCUUCUGUUCUCUGAGAAGUCAAGAGAGGACAUUGGCUCACGCACUGUGAGAUUUUGUUUUUAUACUUGGAAGUGGU: 0.468
CCUCGGGGUCAGGGCCCGGCAUGGCCAAGCCCUGGCCCAUCUGUGUCUGUGUCACUCCCCUCCCUUCCAGACUGGGCCUGGCUGCUGGGAUCCCUCUCAUGCGGUGGGUC: 0.273
CCACACAAAUUGAUCUUCUAUCAUCUUGGAAUCUGAAUUGCAGGGAGGAGCAGCAUGUAAGACGACCGUUUAAUUCAGGCAUUCCGAAGGCAUGAGCGCAUGGAUUCUGU: 29.8
UCUUUUUCUUUCUCUUUUUUUCCUUUUUCACUCAAAAUACUAUUAAGGAGUUUCUCAGACAAAUUGAAAAUUCUAUAUGUUUUGAGGAAAUAAGGGGAAGCUUUAGAGUU: 0.55
CUCCUCCCUGCCCCCCUUUUCUUACAAGGAAAGAAAAGUUGGAUCGUCAGUGGCCAGCCUCCCCUCAGAGAGUUCCGUUGGUAGAUACGCUGCUCAUGUCCCCUCUCCCU: 0.4
UUUCCCCAGGCUAUGAAAAGGAAAGUGAGGGAGCGAUCAUAGUGCUGAUUAUGUCUUCACAGACUGGCUCAGGUUCUUCACGAAGAAGAUGGCCUUUGUGGGAUUUAAUU: 0.574
UGUGCAGAAAGUAGGCCAUUCUCAGCUAGGAUGUAGAAGAACUUGCAGGCUUUGAAACAGCCAACAGAUCCCCUUAGCUCUCUGUCAGUCACGAAGCUAUAUGCCAGGCU: 0.41

Set 4
Target: CCNB2, cyclin fold, Cln2 fusion (human)
Technique: yeast growth competition, sequencing
Sample: yeast
Notes: weak parent motif
Relative to: not given
Reading: higher = stronger binding
Endpoint: normalised enrichment score
Starting sequence: PLK5 docking peptide (human); IFRKVGQRLLTQC; partner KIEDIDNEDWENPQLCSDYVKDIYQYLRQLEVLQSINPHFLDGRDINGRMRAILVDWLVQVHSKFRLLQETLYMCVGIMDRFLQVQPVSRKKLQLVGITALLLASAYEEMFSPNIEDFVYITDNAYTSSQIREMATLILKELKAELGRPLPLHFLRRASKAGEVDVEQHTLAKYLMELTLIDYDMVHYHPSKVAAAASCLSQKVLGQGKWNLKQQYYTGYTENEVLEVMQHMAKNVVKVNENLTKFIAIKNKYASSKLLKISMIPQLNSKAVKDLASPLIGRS
AFRKVGQRLLTQC [I1A]: 0.208
IFRAVGQRLLTQC [K4A]: -0.00315
IFRKVGQRLLTAC [Q12A]: 1.04
IFAKVGQRLLTQC [R3A]: 0.305
IFRKAGQRLLTQC [V5A]: 0.0334
IFRKVGQRLLAQC [T11A]: 0.732

Set 5
Target: DDIT3, bZIP domain (human)
Technique: DHFR protein complementation
Sample: yeast
Notes: single substitutions, most at no-binding floor
Relative to: wild-type JUN-FOS pair
Reading: higher = stronger binding
Endpoint: binding fitness
Starting sequence: JUN, bZIP domain (human); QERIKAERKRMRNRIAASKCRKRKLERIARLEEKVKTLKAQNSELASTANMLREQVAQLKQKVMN; partner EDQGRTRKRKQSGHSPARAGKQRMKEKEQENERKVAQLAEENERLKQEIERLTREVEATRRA
V35E: -0.298 natural log
E54L: -0.15 natural log
K34A: 0.0394 natural log
E33Q: -0.0497 natural log
N42G: -0.859 natural log
A46I: 0.0516 natural log
V56S: -0.519 natural log
T48M: 0.0517 natural log
Q55H: -0.0115 natural log
A46L: 0.0804 natural log
E54T: -0.0709 natural log
N42W: -0.878 natural log
L45E: -1.4 natural log
S43K: 0.182 natural log
L59S: -0.0975 natural log
E33N: -0.145 natural log

Excerpt of the above (set 1):
UGCCACA: 0.0243
GUUAACU: -0.315
GGCGGGA: 0.461
UGAAUGC: -0.295
UGUGCAG: -0.171
CUUCAAA: 0.224
CCCUCGU: -0.467
UCUGUUA: -0.393
AGCCAAU: -0.0573
